Measurements of several laboratories.
Lines come from different studies, so protocols differ. ± marks the error that the study gave. Converted amounts (≈) assume the structure as drawn.
Organism: Escherichia coli

| SMILES | test | system | conditions | measurement | result |
| --- | --- | --- | --- | --- | --- |
| c1ccc(CN2CCOCCOCCN(CCCCCCCCCCN3CCOCCOCCN(CCCCCCCCCCN4CCOCCOCCN(Cc5ccccc5)CCOCCOCC4)CCOCCOCC3)CCOCCOCC2)cc1 | checkerboard | tetracycline-resistant | added: tetracycline | concentration restoring tetracycline activity | 2 µM |
| Cc1ccc(C(=O)Sc2cccccc2=O)cc1 | time-kill | ATCC 35218 | 16 x MIC80, 6 h | reduction in viable count | ~3 log10 CFU |
| COc1ccc(/N=N/C(=S)N2CCCC2)cc1 | microbial growth | ATCC 8739, ATCC8739 | 24 h | IC50 | > 50 µM |
| C[C@]1(COC(=O)c2ccc(O)c(O)c2)[C@H](C(=O)O)N2C(=O)/C(=C/c3ccccn3)[C@H]2S1(=O)=O | broth microdilution | TG1 expressing DHA-1 | 16 µg/mL | MIC of ceftazidime | ≤ 0.06 µg/mL |
| CC[C@H](C)[C@H](NC(=O)[C@H](CCCCN)NC(=O)[C@H](CC(N)=O)NC(=O)CNC(=O)[C@@H](NC(=O)[C@H](C)NC(=O)[C@H](CCCNC(=N)N)NC(=O)[C@H](CC(C)C)NC(=O)[C@H](CCCCN)NC(=O)[C@H](CCCCN)NC(=O)[C@H](CCCCN)NC(=O)[C@H](C)NC(=O)[C@H](CCCCN)NC(=O)[C@@H]1CSSC[C@H](NC(=O)[C@H](CCCNC(=N)N)NC(=O)CN)C(=O)N[C@@H](CC(N)=O)C(=O)N[C@@H](CC(C)C)C(=O)N[C@@H](CC(C)C)C(=O)N1)C(C)C)C(=O)N[C@@H](CCCCN)C(=O)N[C@@H](CCC(=O)O)C(=O)N[C@H](C(=O)N[C@@H](CCCCN)C(=O)N[C@@H](CC(N)=O)C(=O)N[C@H](C(=O)N[C@H](C(=O)N[C@@H](Cc1ccccc1)C(=O)N[C@@H](CC(N)=O)C(=O)N[C@@H](CCCNC(=N)N)C(=O)O)C(C)C)C(C)C)[C@@H](C)CC | time-kill | ATCC 25922 | 25 µM | time to complete killing | ≤ 90 min |
| O=C(O)[C@@H]1Cc2c([nH]c3ccccc23)[C@@H](c2ccc(Br)cc2Cl)N1 |  | BL21(DE3) | 250 µM, 18 h | growth inhibition | 0% |
| CC(=NNC(=N)N)c1nnn(-c2ccc(C#CC3(O)CCCCC3)cc2)c1C | microbial killing | ATCC25922 |  | MBC | 31.2 µg/mL (≈ 82.4 µM) |
| N=C(N)NCCC[C@@H]1NC(=O)[C@H](CCCNC(=N)N)NC(=O)[C@H](CCCNC(=N)N)NC(=O)[C@H](Cc2ccc3ccccc3c2)NC(=O)[C@H](Cc2c[nH]c3ccccc23)NC(=O)[C@H](Cc2ccc3ccccc3c2)NC(=O)[C@H](CCCNC(=N)N)NC1=O | bacterial killing | ATCC BAA-2452 | 4 x MIC | time to growth halt | 2 h |
| CC[C@H](C)[C@H](NC(=O)[C@H](CCCNC(=N)N)NC(=O)[C@@H](N)CCCNC(=N)N)C(=O)N[C@@H](CCCNC(=N)N)C(=O)N1CCC[C@H]1C(=O)N[C@@H](CCCNC(=N)N)C(=O)N1CCC[C@H]1C(=O)N1CCC[C@H]1C(=O)N[C@@H](CCCNC(=N)N)C(=O)N[C@@H](CC(C)C)C(=O)N1CCC[C@H]1C(=O)N[C@@H](CCCNC(=N)N)C(=O)N1CCC[C@H]1C(=O)N[C@@H](CCCNC(=N)N)C(=O)N1CCC[C@H]1C(=O)N[C@@H](CCCNC(=N)N)C(=O)N1CCC[C@H]1C(=O)N[C@@H](CC(C)C)C(=O)N1CCC[C@H]1C(=O)N[C@@H](Cc1ccccc1)C(=O)N1CCC[C@H]1C(=O)N[C@@H](CCCNC(=N)N)C(=O)N1CCC[C@H]1C(=O)NCC(=O)N1CCC[C@H]1C(=O)N[C@@H](CCCNC(=N)N)C(=O)N1CCC[C@H]1C(=O)N[C@H](C(=O)N1CCC[C@H]1C(=O)N[C@@H](CCCNC(=N)N)C(=O)N1CCC[C@H]1C(=O)N[C@@H](CC(C)C)C(=O)N1CCC[C@H]1C(=O)N[C@@H](Cc1ccccc1)C(=O)N1CCC[C@H]1C(=O)O)[C@@H](C)CC | membrane permeabilization, propidium iodide flow cytometry | BW25113, Mueller-Hinton broth | 8 µM, 15 min, 37 °C | PI-positive cells | ~50% |
| CNC1=C([N+](=O)[O-])C2(C(=O)Nc3ccccc32)C2=C(CCCC2=O)O1 (stereo not shown) | microbial growth | ATCC25922 | 250 µg/mL, 24 h | inhibition | 50.4% |
| O.O.O.O.O=C([O-])Cc1ccccc1Nc1c(Cl)cccc1Cl.O=C([O-])Cc1ccccc1Nc1c(Cl)cccc1Cl.[Na+].[Na+].c1cnc2c(c1)ccc1cccnc12.c1cnc2c(c1)ccc1cccnc12 | crystal violet | ATCC 25922 | 250 µM | biofilm inhibition | 76.83 ± 0.009% |
| CN1CCC(NCCC2(Cc3ccc(Cl)cc3)CCCCC2)CC1 | activator | TOP10F′ | 3 h | EC50 | > 60 µM |
| c1ccc(CN2CCOCCOCCN(CCCCCCCCN3CCOCCOCCN(CCCCCCCCN4CCOCCOCCN(Cc5ccccc5)CCOCCOCC4)CCOCCOCC3)CCOCCOCC2)cc1 |  | tetracycline-resistant | 62 µM | MIC of tetracycline | 82 ± 15 µM |

Repeated from above:
| SMILES | test | system | conditions | measurement | result |
| --- | --- | --- | --- | --- | --- |
| C[C@]1(COC(=O)c2ccc(O)c(O)c2)[C@H](C(=O)O)N2C(=O)/C(=C/c3ccccn3)[C@H]2S1(=O)=O | broth microdilution | TG1 expressing DHA-1 | 16 µg/mL | MIC of ceftazidime | ≤ 0.06 µg/mL |
| CC[C@H](C)[C@H](NC(=O)[C@H](CCCCN)NC(=O)[C@H](CC(N)=O)NC(=O)CNC(=O)[C@@H](NC(=O)[C@H](C)NC(=O)[C@H](CCCNC(=N)N)NC(=O)[C@H](CC(C)C)NC(=O)[C@H](CCCCN)NC(=O)[C@H](CCCCN)NC(=O)[C@H](CCCCN)NC(=O)[C@H](C)NC(=O)[C@H](CCCCN)NC(=O)[C@@H]1CSSC[C@H](NC(=O)[C@H](CCCNC(=N)N)NC(=O)CN)C(=O)N[C@@H](CC(N)=O)C(=O)N[C@@H](CC(C)C)C(=O)N[C@@H](CC(C)C)C(=O)N1)C(C)C)C(=O)N[C@@H](CCCCN)C(=O)N[C@@H](CCC(=O)O)C(=O)N[C@H](C(=O)N[C@@H](CCCCN)C(=O)N[C@@H](CC(N)=O)C(=O)N[C@H](C(=O)N[C@H](C(=O)N[C@@H](Cc1ccccc1)C(=O)N[C@@H](CC(N)=O)C(=O)N[C@@H](CCCNC(=N)N)C(=O)O)C(C)C)C(C)C)[C@@H](C)CC | time-kill | ATCC 25922 | 25 µM | time to complete killing | ≤ 90 min |
